{"data": "Assay results collected from several papers", "note": "Parts stem from different laboratories: compare values within a part only.", "chain of UniProt Q00535 (whole entry, looked up)": "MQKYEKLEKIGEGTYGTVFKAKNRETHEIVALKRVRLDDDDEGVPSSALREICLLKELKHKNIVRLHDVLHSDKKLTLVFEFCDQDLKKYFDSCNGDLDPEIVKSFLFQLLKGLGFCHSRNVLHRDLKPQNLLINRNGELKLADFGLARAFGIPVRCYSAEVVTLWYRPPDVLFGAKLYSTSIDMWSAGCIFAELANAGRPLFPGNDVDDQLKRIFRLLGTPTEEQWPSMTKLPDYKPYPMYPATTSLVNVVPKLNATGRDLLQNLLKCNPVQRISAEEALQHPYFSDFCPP", "chain of UniProt Q14164 (whole entry, looked up)": "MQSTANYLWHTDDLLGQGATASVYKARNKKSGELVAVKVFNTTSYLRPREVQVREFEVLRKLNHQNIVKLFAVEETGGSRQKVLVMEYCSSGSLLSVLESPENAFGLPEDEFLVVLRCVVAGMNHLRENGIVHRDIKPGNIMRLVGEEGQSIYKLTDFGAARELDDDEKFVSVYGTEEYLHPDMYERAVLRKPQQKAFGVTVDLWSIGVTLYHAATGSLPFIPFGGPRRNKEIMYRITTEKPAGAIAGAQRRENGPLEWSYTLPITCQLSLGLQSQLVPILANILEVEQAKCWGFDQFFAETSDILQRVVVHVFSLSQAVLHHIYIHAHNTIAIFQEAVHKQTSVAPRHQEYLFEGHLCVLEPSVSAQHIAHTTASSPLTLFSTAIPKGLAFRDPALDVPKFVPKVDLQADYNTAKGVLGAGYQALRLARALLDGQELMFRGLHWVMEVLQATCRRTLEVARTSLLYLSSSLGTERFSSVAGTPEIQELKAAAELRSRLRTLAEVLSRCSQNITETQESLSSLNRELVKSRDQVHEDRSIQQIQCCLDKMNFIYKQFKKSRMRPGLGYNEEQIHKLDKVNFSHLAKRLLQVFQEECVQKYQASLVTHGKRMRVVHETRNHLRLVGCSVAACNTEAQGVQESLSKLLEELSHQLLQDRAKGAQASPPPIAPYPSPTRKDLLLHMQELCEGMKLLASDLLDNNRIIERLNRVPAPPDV", "chain of UniProt Q9UIK4 (whole entry, looked up)": "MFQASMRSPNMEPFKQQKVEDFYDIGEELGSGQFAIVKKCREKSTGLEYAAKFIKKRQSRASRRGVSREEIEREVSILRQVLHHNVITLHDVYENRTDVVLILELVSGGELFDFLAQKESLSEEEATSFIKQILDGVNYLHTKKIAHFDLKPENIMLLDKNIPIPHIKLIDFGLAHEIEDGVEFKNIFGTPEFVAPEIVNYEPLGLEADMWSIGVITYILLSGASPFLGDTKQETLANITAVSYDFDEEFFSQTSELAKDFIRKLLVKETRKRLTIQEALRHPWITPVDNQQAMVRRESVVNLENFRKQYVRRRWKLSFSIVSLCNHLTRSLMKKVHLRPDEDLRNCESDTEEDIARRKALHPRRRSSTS", "chain of UniProt P53355 (whole entry, looked up)": "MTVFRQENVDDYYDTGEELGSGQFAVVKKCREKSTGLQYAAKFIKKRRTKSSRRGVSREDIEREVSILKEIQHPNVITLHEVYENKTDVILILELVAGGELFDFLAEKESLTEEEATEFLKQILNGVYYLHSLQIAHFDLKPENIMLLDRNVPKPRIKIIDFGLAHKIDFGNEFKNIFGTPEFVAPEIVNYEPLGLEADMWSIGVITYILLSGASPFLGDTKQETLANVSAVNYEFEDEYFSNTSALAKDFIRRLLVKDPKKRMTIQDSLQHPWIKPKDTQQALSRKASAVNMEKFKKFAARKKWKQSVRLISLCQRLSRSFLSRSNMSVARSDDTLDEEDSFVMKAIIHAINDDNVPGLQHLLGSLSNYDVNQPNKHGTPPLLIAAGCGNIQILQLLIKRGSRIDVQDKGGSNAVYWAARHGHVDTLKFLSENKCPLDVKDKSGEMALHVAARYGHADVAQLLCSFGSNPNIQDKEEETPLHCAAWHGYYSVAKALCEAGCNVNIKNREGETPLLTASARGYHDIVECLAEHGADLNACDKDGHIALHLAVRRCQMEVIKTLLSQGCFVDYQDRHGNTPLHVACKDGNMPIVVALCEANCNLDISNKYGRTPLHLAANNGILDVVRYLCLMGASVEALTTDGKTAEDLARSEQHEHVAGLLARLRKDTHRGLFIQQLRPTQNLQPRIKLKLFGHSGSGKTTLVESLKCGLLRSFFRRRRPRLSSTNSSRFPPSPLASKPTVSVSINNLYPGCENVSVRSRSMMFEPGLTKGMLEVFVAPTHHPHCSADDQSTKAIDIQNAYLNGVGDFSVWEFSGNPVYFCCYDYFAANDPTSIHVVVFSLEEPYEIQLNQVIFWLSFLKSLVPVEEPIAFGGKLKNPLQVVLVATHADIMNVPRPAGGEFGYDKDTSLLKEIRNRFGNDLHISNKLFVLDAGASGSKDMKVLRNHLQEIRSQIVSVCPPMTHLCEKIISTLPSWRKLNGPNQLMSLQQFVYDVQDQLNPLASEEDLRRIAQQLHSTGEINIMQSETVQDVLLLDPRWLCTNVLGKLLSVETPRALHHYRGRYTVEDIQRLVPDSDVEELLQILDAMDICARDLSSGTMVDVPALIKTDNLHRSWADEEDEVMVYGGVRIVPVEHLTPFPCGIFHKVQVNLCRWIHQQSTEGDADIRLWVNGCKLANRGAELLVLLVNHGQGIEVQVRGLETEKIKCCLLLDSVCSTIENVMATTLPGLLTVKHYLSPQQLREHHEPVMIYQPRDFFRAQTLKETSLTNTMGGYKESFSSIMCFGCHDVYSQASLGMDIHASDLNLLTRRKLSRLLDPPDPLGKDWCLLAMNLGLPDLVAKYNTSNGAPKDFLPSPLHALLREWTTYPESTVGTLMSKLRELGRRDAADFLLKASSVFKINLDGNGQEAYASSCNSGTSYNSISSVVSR", "chain of UniProt P11802 (whole entry, looked up)": "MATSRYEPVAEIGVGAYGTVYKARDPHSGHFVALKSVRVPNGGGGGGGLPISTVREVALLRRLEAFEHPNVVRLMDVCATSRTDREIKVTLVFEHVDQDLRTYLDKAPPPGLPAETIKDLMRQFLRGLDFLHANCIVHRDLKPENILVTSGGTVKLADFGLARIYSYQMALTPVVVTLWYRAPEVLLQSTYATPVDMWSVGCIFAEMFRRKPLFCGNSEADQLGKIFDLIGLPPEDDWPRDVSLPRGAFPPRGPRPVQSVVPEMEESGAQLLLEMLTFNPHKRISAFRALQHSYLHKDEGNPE", "chain of UniProt P37173 (whole entry, looked up)": "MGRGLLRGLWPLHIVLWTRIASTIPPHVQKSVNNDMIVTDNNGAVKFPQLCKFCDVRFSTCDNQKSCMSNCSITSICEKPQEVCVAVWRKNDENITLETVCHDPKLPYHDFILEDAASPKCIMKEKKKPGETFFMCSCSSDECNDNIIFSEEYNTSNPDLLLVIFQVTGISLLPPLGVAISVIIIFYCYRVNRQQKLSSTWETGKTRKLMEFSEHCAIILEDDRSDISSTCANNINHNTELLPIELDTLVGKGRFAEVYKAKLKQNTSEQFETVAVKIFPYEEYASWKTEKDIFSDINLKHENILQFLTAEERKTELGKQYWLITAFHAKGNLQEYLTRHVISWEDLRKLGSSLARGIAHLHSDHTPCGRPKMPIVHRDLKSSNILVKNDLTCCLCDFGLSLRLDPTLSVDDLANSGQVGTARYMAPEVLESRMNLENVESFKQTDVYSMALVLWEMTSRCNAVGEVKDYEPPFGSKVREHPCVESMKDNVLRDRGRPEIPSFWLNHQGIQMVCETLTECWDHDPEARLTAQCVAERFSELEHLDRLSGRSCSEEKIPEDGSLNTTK", "chain of UniProt P05771 (whole entry, looked up)": "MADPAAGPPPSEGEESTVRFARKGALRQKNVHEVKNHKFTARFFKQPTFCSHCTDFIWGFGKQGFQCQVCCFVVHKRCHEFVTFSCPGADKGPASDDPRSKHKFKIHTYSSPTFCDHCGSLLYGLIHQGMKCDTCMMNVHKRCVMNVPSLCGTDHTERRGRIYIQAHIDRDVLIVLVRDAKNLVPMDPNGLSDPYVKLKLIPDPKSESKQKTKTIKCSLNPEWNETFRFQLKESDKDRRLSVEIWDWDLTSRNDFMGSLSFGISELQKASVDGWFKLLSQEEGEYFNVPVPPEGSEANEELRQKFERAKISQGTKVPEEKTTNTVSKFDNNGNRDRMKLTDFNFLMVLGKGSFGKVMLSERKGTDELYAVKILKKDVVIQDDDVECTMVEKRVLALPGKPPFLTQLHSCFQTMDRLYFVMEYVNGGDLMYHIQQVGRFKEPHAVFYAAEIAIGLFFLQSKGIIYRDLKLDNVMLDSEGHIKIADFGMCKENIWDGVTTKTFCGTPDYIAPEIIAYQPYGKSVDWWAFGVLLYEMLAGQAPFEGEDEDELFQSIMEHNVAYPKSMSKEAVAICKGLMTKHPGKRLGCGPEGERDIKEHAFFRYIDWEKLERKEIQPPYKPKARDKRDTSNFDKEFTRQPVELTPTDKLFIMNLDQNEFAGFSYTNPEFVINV"}
{"data": "Set 1", "target": "Muscarinic acetylcholine receptor M2 (CHRM2, Homo sapiens, UniProt P08172)", "observed": "binding", "method": "radioligand binding", "tested at": "10 µM", "chain of UniProt P08172 (whole entry, looked up)": "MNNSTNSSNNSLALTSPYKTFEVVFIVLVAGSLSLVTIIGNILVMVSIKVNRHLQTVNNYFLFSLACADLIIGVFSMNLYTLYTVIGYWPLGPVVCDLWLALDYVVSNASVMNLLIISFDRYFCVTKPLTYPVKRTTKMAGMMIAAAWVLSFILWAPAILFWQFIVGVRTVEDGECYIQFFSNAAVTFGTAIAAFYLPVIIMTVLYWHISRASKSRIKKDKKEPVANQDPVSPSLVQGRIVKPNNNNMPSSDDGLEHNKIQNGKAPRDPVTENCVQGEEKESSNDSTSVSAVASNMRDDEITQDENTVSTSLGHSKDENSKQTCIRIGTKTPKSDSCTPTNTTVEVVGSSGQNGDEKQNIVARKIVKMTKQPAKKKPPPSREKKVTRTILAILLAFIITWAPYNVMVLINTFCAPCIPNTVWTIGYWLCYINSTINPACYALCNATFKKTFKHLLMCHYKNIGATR"}
{"Compound": "CS(=O)(=O)NCC[C@H](NC(=O)c1cncc2c1cnn2-c1ccc(F)cc1)c1ccnc(S(C)(=O)=O)c1", "inhibition [%]": 17.4}
{"Compound": "Cc1c(N2CCCC2)nc2ccc(Br)cc2c1C(=O)NC[C@H](CCC(=O)O)c1ccccc1Cl", "inhibition [%]": 14.6}
{"Compound": "O=C1c2ccc(Nc3ccc(F)cc3F)cc2CCc2ccc(OC[C@H](O)CO)cc21", "inhibition [%]": 40}
{"Compound": "COc1cccc(CNC(=O)c2nc3scc(COCc4ccc(C(=O)O)cc4)c3c(=O)[nH]2)c1", "inhibition [%]": -2.95}
{"Compound": "COc1cc(-c2cn(C3CCc4ccccc4N(CC(F)(F)F)C3=O)nn2)ccc1-n1ccc(C)n1 (stereo not shown)", "inhibition [%]": -13.6}
{"Compound": "CC(=O)N1CCC(c2ccc(C(=O)NC(=N)N)cc2C(F)(F)F)CC1", "inhibition [%]": 23.5}
{"Compound": "C[C@H](NC(=O)c1cnc2n1[C@](C)(Cc1ccc(C#N)cc1)C(=O)N2c1cc(Cl)c(F)c(Cl)c1)C(=O)NC1(c2ccccn2)CC1", "inhibition [%]": -13.4}
{"Compound": "COCc1nc2cnc3cc(-c4c(C)noc4C)c(OC[C@H]4CCNC4)cc3c2n1[C@H](C)c1ccccc1", "inhibition [%]": 4.05}
{"Compound": "CNC(=O)c1ccc(Nc2ncc(C(F)(F)F)c(NCc3nccnc3N(C)S(C)(=O)=O)n2)cc1", "inhibition [%]": 19.5}
{"Compound": "Cc1cc(C)c(-n2ccn3nc(-c4cccnc4)cc23)cc1NC(=O)c1cc(C#N)cc(S(F)(F)(F)(F)F)c1", "inhibition [%]": 10.5}
{"data": "Set 2", "target": "Prothrombin, mature alpha-thrombin (F2, Homo sapiens, UniProt P00734)", "method": "aptamer microarray, sandwich", "molecule type": "DNA with 2'F-ANA", "matrix": "in vitro", "tested at": "200 nM", "notes": "whole 15-mer aptamer, many near background", "added": "Cy3 exosite-II aptamer, 400 nM", "direction": "higher = stronger binding", "sequence": "GGTTGGTGTGGTTGG"}
{"Modification": "2'F-ANA at 1 2 6 7 9 10 11 14 15", "mean fluorescence intensity": "51.5 a.u."}
{"Modification": "2'F-ANA at 5 10 11 13 14", "mean fluorescence intensity": "45.8 a.u."}
{"Modification": "2'F-ANA at 1 3 4 5 6 7 10 11 12 15", "mean fluorescence intensity": "50.1 a.u."}
{"Modification": "2'F-ANA at 5 7 13 15", "mean fluorescence intensity": "57.3 a.u."}
{"Modification": "2'F-ANA at 1 2 3 4 5 6 8 9 10 11 12 13 14 15", "mean fluorescence intensity": "51.1 a.u."}
{"Modification": "2'F-ANA at 1 2 6 8 9 10 14", "mean fluorescence intensity": "53.7 a.u."}
{"Modification": "2'F-ANA at 2 3 4 5 9 11", "mean fluorescence intensity": "74.6 a.u."}
{"Modification": "2'F-ANA at 3 5 6 7 8 12 13 14", "mean fluorescence intensity": "75 a.u."}
{"data": "Set 3", "Compound": "c1cc(-c2cnn3cc(-c4ccc(OCCN5CCCCC5)cc4)cnc23)ccn1", "observed": "enzyme activity", "mode": "inhibitor", "tested at": "0.5 µM", "relative to": "control"}
{"target": "Tyrosine-protein kinase Lyn, isoform B (LYN, Homo sapiens, UniProt P07948)", "remaining activity [%]": 67.7}
{"target": "CAMKK2 (Homo sapiens, UniProt Q96RR4)", "remaining activity [%]": 30.4}
{"target": "PRKCA (Homo sapiens, UniProt P17252)", "remaining activity [%]": 90.4}
{"target": "GRK3 (Homo sapiens, UniProt P35626)", "remaining activity [%]": 93.3}
{"target": "DAPK1 (Homo sapiens, UniProt P53355)", "remaining activity [%]": 89.6}
{"target": "DAPK2 (Homo sapiens, UniProt Q9UIK4)", "remaining activity [%]": 90.2}
{"target": "STK10 (Homo sapiens, UniProt O94804)", "remaining activity [%]": 41.8}
{"target": "STK11 (Homo sapiens, UniProt Q15831)", "remaining activity [%]": 85.3}
{"target": "PRKACA (Homo sapiens, UniProt P17612)", "remaining activity [%]": 81.2}
{"target": "Protein kinase C beta type, isoform beta-I (PRKCB, Homo sapiens, UniProt P05771)", "remaining activity [%]": 103}
{"target": "MAP3K3 (Homo sapiens, UniProt Q99759)", "remaining activity [%]": 102}
{"target": "CHEK2 (Homo sapiens, UniProt O96017)", "remaining activity [%]": 92.7}
{"target": "IKBKE (Homo sapiens, UniProt Q14164)", "remaining activity [%]": 71.9}
{"target": "OXSR1 (Homo sapiens, UniProt O95747)", "remaining activity [%]": 99.4}
{"target": "Cyclin-dependent kinase 5, with p25 (CDK5, Homo sapiens, UniProt Q00535)", "remaining activity [%]": 68.2}
{"target": "Cyclin-dependent kinase 4, with cyclin D1 (CDK4, Homo sapiens, UniProt P11802)", "remaining activity [%]": 35.3}
{"target": "STK39 (Homo sapiens, UniProt Q9UEW8)", "remaining activity [%]": 76.8}
{"target": "CAMK2D (Homo sapiens, UniProt Q13557)", "remaining activity [%]": 54.5}
{"target": "MAPK9 (Homo sapiens, UniProt P45984)", "remaining activity [%]": 87.8}
{"target": "TGFBR1 (Homo sapiens, UniProt P36897)", "remaining activity [%]": 107}
{"target": "IKBKB (Homo sapiens, UniProt O14920)", "remaining activity [%]": 104}
{"target": "TGFBR2 (Homo sapiens, UniProt P37173)", "remaining activity [%]": 18.7}
{"target": "cGMP-dependent protein kinase 1, isoform beta (PRKG1, Homo sapiens, UniProt Q13976)", "remaining activity [%]": 74}
{"data": "Set 4", "target": "RNA binding protein fox-1 homolog 2, RRM domain, GST-SBP tag (RBFOX2, Homo sapiens, UniProt O43251-10, residues 100-194)", "method": "RNA Bind-n-Seq", "molecule type": "RNA", "matrix": "in vitro", "tested at": "365 nM", "notes": "natural RNA segment, single round, ends assumed", "relative to": "no-protein control", "direction": "higher = stronger binding", "Construct (chain)": "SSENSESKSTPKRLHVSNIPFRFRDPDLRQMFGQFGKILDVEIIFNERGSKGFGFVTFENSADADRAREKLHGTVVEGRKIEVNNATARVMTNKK"}
{"Sequence": "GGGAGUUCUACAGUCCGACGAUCAAAGGUGGUGGGGAUCCAGUUCAGGAGGGAGGGGUAUGUUUGUCUCCCAGUCUGGGCAAAGGAGUGCUAUGCGGAAUUCUCUGCAUAGCAGAAAAGCUCCCACCAUUUUCUGGAAUUCUCGGGUGCCAA", "RBNS enrichment (R)": 1.94}
{"Sequence": "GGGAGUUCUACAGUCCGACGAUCGAUAGCCUGGGUGUUGAUAUUCACUUUACCCGCACUCAGACACAGGCGACCUUGAAGCAGUUCUCGGUGUGUAGAGUCCACGUGACAGUCCCCACAGCCUCCCCAGAUAGUGGAAUUCUCGGGUGCCAA", "RBNS enrichment (R)": 0.263}
{"Sequence": "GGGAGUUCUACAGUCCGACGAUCUUCCAAGGGCUGUUCCAGACAACUGCCAACGUCACUGAGGGCCCUGCCCCAGCGGCCCUGGCCCCAGGCUCUAUUAACCUAAAAUGUAGCUCCCUAGCGCUAACCUAGGAUGGAAUUCUCGGGUGCCAA", "RBNS enrichment (R)": 0.228}
{"Sequence": "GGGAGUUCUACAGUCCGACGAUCAUCACACGAUAUUAGGUACUAAUUAUACCCUCAUUGCUUUAAAAUACACAUCAGGGUCUCUUUUAAAAAUAGAACAAAUCUGUAGUAUUUAAGUUUAAAAAUCUUAAGUUUGGAAUUCUCGGGUGCCAA", "RBNS enrichment (R)": 0.4}
{"Sequence": "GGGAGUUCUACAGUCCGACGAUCAAAUACAAAAAUUAGCCAAGUGUGAUGGCACAUACCUGUAAUCCCAGCUACUUGGAAUUGGAAAUCGCCUGAACCCAGGAGGCGGAGGUUGCAGGGAGGGAGACUGCACCUGGAAUUCUCGGGUGCCAA", "RBNS enrichment (R)": 0.766}
{"Sequence": "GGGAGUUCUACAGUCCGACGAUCGGCACUUAACCACACCCUGGUUUUGUGUAGCCGCCAGCUCUCUUCUGGUUGGGCCUUUGAAAGGCUCAGCCUCCCAUUGUGCAGUGCUUGGGUUUGGAGCUUAUUUGAAUUGGAAUUCUCGGGUGCCAA", "RBNS enrichment (R)": 0.348}
{"Sequence": "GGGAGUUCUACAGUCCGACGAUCUGAAAUCUUGCAUCUUCAAGAAAAGAUUAAAAUAGUAAAAGUAUCUUAAAUUUCCUGAUAUUUAUGUACAUAUAGUAAGAUAACUGAUAAGUCUUAGAUGUUUGAGUGAAUGGAAUUCUCGGGUGCCAA", "RBNS enrichment (R)": 0.466}
{"Sequence": "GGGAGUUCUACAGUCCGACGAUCGGCAAUCUAUGACUCACCUUGCUCUGCCAUCCCUGGCAGCCCCCACCGGUGUCCUGUUCCUGCCACAUGGAGCUUGACUUCAUGCCAGCUAUAAUCUCCCCUGCCUUCCUUGGAAUUCUCGGGUGCCAA", "RBNS enrichment (R)": 0.277}
